Measurements of several laboratories.
Every numbered part comes from another study and shows a few of its results, in no order. Substitutions count along the parent as printed.

Sample 1 — method: RNA Bind-n-Seq; molecule type: RNA; sample: in vitro; tested at: 365 nM; relative to: no-protein control; reading: higher = stronger binding
Target: RNA binding protein fox-1 homolog 2, RRM domain, GST-SBP tag (RBFOX2, Homo sapiens, UniProt O43251-10, residues 100-194)
Notes: natural RNA segment, single round, ends assumed
Constant ends, left off below: GGGAGUUCUACAGUCCGACGAUC … UGGAAUUCUCGGGUGCCAA
Residues (chain): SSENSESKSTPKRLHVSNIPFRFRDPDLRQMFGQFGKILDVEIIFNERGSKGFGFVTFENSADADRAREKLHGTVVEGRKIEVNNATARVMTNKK
| Sequence | RBNS enrichment (R) |
| --- | --- |
| ACAAUCUGUAGGCUUUAAGAAUUGCUUUUAAACCUUUUUAAGUGAUAAACUCUUGAAGUGGUCUUAAGGUUAGCAAAUAAUUGUCUGUAUUAAACAUGGCGUUAUUUAAG | 0.374 |
| GAGUCUUUUUUUUUUAAGUGAAAUUUAUUGAGGAAAAAUAUGUGAAGGACCUUCACUCUAAGAUGUUAUAUUUUUCUUAAAAAGUAACUCCUAGUAGGGGUACCACUGAA | 0.388 |
| ACCAAGGAAUUGCCUCAGCCUCCUACCAGUCCUCCCUCACCCACCUUCUGUCUAGGUUCACUUGGUUUGUCAUCAGGAACUGAGCAGGUCCAGGACUCAGCUUUCUGCUU | 0.708 |
| CUGCCUCAAGGCUUGGUUCCUGGAAAGUAAAGGUGAAAACAUCCCCUUUCACCCCUCUGCAAAACAAACAAGCAACAUCCUCAAAACCCAACCCCAUGCCUCACAGAGCU | 0.436 |
| GCCAAAAAGUACUUGACUUAAGGUUCACUAAUUAGUUACAAAACUGAACAGCCUCGAUUUUUAAGAAAAUUUAUGAAAUGUAUUUGUCUGUAAAAAUUGUAUAUAUUUUU | 0.948 |
| UGAUCAAUGAGGGCGGGGCCUGGCGUCUGAUCUGGGGCCGCCCUUACGGGGCAGGGCUCAGUCCUGACGCUUGCCACCUGCUCCUACCCGGCCAGGAUGGCUGAGGGCGG | 0.185 |
| AUAGUCAAAAUCCAGCCCUCCACAGACACUCCCCAGGACCUGGGGAGGGAAGGGAUUUUGAGUCACAUUAGCCUCAGGUUAGUGUUUGGCUCCAGUAAUAUCUUGCCCGA | 0.288 |
| AGAUUUAACAAAUCACUUCCUUCAUCCUUGUUGUUAUGGAAACCGUUGCCAGAGCUGGAAGUUUCCACAGGCUGCUGGAGCUAGACAACAAUUCAGACAGAAAGGGAAAG | 0.344 |
| UUUCCGAGAUAUUCCGUAGUACAUAUUUAUUUUUAAACAGCAACAAAGAAAUACAGAUAUAUCUUAAAAAAAAAAGCAUUUUGUAUUAAAGAAUUGAAUUCUGAUCUCAA | 3.01 |
| UUAACUCCGUAAAAAGUGAUUCAGUGGACCGAAGAGGCUCAGAGGGCAGGGGAUGGUGGGGUGAGGCAGAGCACUGUCACCUGCCAGGCAUGGGAGGUCCUGCCAUCCGG | 1.09 |
| UUGAAUUGUGAGAACAUUUUUGAACAAUUUACCUGUCAAUAAAGCAGAAGACGGCAGUUUUAAAGUUCCAGUGGUCCGUUUGGAUGUGGUAACAUGUCACCCGUGUGUCU | 0.681 |
| AAAUGACAUUUGAAAGCCAUUAGACUUCUAGGUGAUGCAUCUAAGAAAGAUUAAUCACACAAUAGAGGCAUAUGCGCUGUCAUUUUUCCUUUUUUUAAUUGUUAAAUUGA | 0.289 |

Sample 2 — method: RNA Bind-n-Seq; molecule type: RNA; sample: in vitro; tested at: 100 nM; relative to: input RNA pool; reading: higher = stronger binding
Target: RING finger protein unkempt homolog, zinc fingers 1-6, SBP tag (UNK, Homo sapiens, UniProt Q9C0B0, residues 30-357)
Sequence of UniProt Q9C0B0 (30-357, looked up): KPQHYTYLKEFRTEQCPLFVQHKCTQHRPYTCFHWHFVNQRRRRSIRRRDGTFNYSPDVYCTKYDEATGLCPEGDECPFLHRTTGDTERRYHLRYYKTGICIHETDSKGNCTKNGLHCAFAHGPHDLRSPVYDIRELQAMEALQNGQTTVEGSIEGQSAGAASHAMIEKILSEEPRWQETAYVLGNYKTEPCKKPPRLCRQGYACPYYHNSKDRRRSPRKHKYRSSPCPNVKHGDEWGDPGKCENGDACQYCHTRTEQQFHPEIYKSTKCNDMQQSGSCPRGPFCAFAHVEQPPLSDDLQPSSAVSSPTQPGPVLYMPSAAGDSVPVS
Notes: RNA with constant flanks, vertebrate orthologous sites, ends assumed
Constant ends, left off below: GGGAGUUCUACAGUCCGACGAUC … CAACAGAGGAUUGAGCAUCA
| Sequence | bound/input enrichment [ratio] |
| --- | --- |
| UUCAGGCUCAACUGACUGUUUCACAACAUUCCUUACACAGCUAUUUAACAAGUACAGGGGGAGUUAAUUUUCAGGAUACAUCUAGGCACUCAGCAUUAUCUUGCAGCCCAGUUGAAGAUG | 0.8 |
| AAACCUAUAUCGUGGCAUAUAGUCAACAUGGAAGUAGACCAGCUCUGCCGACGUGGAAAUUUAGAUUUUUUUAAUUACGUACUGGGGACAGGUCUUUGUCGCUUUACAUUGCUUCCUAGU | 3.99 |
| AUCAUGGACGCUCUUUACCUCCUCAGUGAGGUGGAGUCUCCCUCAGCAUAUGGUGGGCCCCAGAGCUGCUCAGACCUGAUACAUCUUUCCACAUUUUAUUUCUUUCACUCUCACAGUCAG | 0.552 |
| AGAAGCAUGCACAUGUCGCUCUCACCAAAAGCAAACAUGUUCAAAAUCUCCGAUAGCGUUUUUAGUAUGCUUUCUUUCUGGCAACCAUUUAUACCUAGAUGCUGCAACAAUUGUUUUCUG | 0.62 |
| AGGAAAUGCUGGCUGCCAACCCUCAGGAUCGUCCAGAUGCUUUUGAACUAGAACUCAGAUUAGUACAAAUUGCAUUUAAAGAUAGCAGCUGGGAAACGUGACACAUAUUAUUUGCAAAUA | 0.988 |
| AUCUCUUAUUUUAUAUGUCCAAAAAAGGCUUUGAAUUUUUAAACAGUUGUUAGUUUUAAUUAGCUCUGCCCUCGUGAAGUAUUAUUAUAAUUCACCACAAACAGAUAUCUGUCUGAAUUA | 0.627 |
| CCCUCUGAACCCCAUAUCUUCUGUUUCAUAAUACAGAAGCAUCCUUUUCAAUUGUAUGAGUGGACUUGUUUUAAUUUUAGAGAAACCUCCAGUACAGAUACUGUGGGUUGACAUGGGAAA | 0.811 |
| GUUGUGAUCCCUUUAACAUCCACAGAAAGCUAUCAAAGAAAAACUUGCGAGCCAUUGACUUGGACGAUGCGGCUUUUCUGAGUGCCAAGUUUGGAAGGCAGUUUGUUCCUGGUUGGAAGC | 0.315 |
| AUCUCUCAGUGACAGCAUUCCGUCAGUAGCUGACUCCCACUCGAGUCAUUUUUCUGAAUUUAGUUGCUCUGAUUUGGAAAGCAUGAAAACUUCUUGUAGUCAUGGAUCCAAUGAUUAUCA | 0.331 |
| AAUAGGUUUAAGCUUGUUUGCACAGUUUUUUUACUCCAUUGGAGAUGGAAUUCAUUGCCUUAGGUCUUUUUAAUAGUGUAUUGUUAUUGUUGGGCUGGCUCUAUGCUUGAAAACCAGUUU | 1.61 |
| AAGAUGUGUUUAGUGAGUUGUAUUUAAUGAUCUCAUUCCUGAGUUCCUUUUUCAUUAAAGUAGCUUUAAUUUCUCUUAUUACAGUUAUGAAGAAAUAAAAGGGUUGUGCCUGUAGACACU | 0.247 |

Sample 3 — method: protein-binding microarray; molecule type: double-stranded DNA, one strand shown; sample: in vitro; tested at: 2540 nM top; notes: 60-bp whole probe; added: salmon DNA 0.4 mg/ml; relative to: random background probes; reading: higher = stronger binding; constant ends, left off below: GCCTAGCAC … GTCTTGATTCGCTTGACGCTGCTG
Target: Interferon regulatory factor 3, full length, phosphomimetic (IRF3, Homo sapiens, UniProt Q14653, residues 1-427, S386D/S396D/S398D/S402D/T404D/S405D)
Sequence of UniProt Q14653 (whole entry, unmodified, looked up): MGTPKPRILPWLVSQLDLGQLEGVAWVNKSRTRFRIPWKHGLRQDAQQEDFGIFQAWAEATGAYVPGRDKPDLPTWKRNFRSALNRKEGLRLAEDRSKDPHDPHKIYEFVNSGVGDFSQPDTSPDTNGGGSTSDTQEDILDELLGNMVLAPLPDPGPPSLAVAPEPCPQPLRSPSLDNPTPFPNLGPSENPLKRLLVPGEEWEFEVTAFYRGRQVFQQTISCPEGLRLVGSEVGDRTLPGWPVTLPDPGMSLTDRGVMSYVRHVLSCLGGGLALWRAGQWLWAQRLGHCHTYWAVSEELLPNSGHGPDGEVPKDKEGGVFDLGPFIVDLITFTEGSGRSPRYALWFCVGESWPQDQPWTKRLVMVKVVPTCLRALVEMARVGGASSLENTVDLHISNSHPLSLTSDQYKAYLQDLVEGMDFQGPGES
| Sequence | fitted relative affinity [z-score] |
| --- | --- |
| GAGGGGGCAGGGACTCAGGGGTGCTAG | -0.552 |
| GACGGTATCCTTTCCCTGACGTGCTAG | 7.12 |
| GACGATTTCAGACTGGATACGTGCTAG | 1.17 |
| GACGAACTGCGGACTGGAGACGTGCTA | -0.428 |
| TTCGGTATCCTACTGCTTTAGTGCTAG | 3.01 |
| ATGGCTTTGCAGATAAATATGTGCTAG | -0.65 |
| GACGACTTCAGTATCGAGACGTGCTAG | 0.182 |
| TCCCTTTTCATGCTCTTATAGTGCTAG | 3.82 |
| TTAGAGCTCAGACTGGATTAGTGCTAG | -0.468 |
| ATATATATATTATATATTTATGTGCTA | 0.681 |
| TCATGTTTTTCATTATTACTGTGCTAG | 0.981 |
| TCATCTTTCACTGCTGCACTGTGCTAG | 1.35 |
| TCATCTCTGGACTGTGTGACTGTGCTA | 0.451 |
| TCAGTTCTTAGCTTGGGACTGTGCTAG | 0.74 |
| GTTTTTTTCTACTTCTCTTTGTGCTAG | 1.87 |
| GGTCTTTTCGCTTTCTTTACGTGCTAG | 2.97 |
| TTATATCTCAGTTTCGATTAGTGCTAG | 3.87 |
| TTGGATTTCAGTTTCGATTAGTGCTAG | 5.26 |
| GACGATCTCAGTATCGCGACGTGCTAG | 0.744 |
| TCACTTCTCAATTAAAAACTGTGCTAG | 2.07 |
| TAAGGTTTCGGACTGGGTTAGTGCTAG | 4.14 |
| GACGAACTGGGGTTTCGCGACGTGCTA | -0.387 |
| TTAGATTTCGGCACTGGATTAGTGCTA | 0.476 |
| TTAGGTAGCGGTTTCGGTTAGTGCTAG | 5.18 |
| TTTTCATTATTGTGTCAACTTGTGCTA | 2.96 |

Sample 4 — method: protein binding microarray; molecule type: double-stranded DNA, one strand shown; sample: in vitro; tested at: not given; relative to: not given; reading: higher = stronger binding
Target: Histone acetyltransferase KAT6A, winged helix 2, GST fusion (KAT6A, Homo sapiens, UniProt Q92794, residues 85-181)
Notes: 8-mer, flanks averaged, mean of 2 arrays, mostly near background
Residues (chain): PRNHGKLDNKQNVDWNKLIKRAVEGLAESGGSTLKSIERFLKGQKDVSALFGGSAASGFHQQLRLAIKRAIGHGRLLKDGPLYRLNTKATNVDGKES
| Sequence | E-score |
| --- | --- |
| GCGTGGTA | -0.049 |
| AAAGTTGT | 0.072 |
| GGCGGCCC | 0.131 |
| GACACAAA | 0.21 |
| CAAAACTG | 0.00927 |
| CTACTTTA | -0.164 |
| CTGGATAC | 0.019 |
| AATTCCTC | 0.00717 |
| AACCCGGT | -0.115 |
| AAGGGCGG | 0.0324 |
| GTCTTACA | -0.21 |
| CTTGGTGC | -0.0759 |
| ACGTTCAG | -0.137 |
| ACGTACAA | -0.168 |
| GAGTGGCC | 0.0503 |
| AATCATAC | -0.00301 |
| AAGACTAG | -0.221 |
| AGCCCAGC | 0.138 |
| AAGAACTG | -0.0827 |
| AATCGTGT | -0.0559 |
| GATTTAGA | -0.016 |
| GATAGCGA | 0.00694 |
| CATCGATG | -0.139 |

Sample 5 — target: CCNF, cyclin fold, Cln2 fusion (human); method: yeast growth competition, sequencing; sample: yeast; notes: strong parent motif; relative to: not given; reading: higher = stronger binding
Starting sequence: CDC6 docking peptide (human); TLKGRRLVFDNQL; partner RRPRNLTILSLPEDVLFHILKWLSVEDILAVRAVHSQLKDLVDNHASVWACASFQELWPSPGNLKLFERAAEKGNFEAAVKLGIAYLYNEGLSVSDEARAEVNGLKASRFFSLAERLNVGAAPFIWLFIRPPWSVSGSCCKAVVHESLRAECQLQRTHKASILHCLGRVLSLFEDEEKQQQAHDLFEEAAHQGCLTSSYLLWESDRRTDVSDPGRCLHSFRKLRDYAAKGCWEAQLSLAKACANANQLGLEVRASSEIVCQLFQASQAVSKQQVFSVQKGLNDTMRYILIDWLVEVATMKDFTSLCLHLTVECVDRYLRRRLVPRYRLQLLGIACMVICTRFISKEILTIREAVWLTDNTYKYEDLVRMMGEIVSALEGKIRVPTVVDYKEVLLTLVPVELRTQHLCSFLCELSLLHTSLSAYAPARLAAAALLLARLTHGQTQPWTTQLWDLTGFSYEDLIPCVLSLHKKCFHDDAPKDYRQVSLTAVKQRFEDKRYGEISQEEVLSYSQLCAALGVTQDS
| Variant | normalised enrichment score |
| --- | --- |
| TLKGRELVFDNQL [R6E] | 4.3 |
| TLKGRRLVFDFQL [N11F] | 9.45 |
| TLCGRRLVFDNQL [K3C] | 8.16 |
| TLKGRRLVMDNQL [F9M] | 6.92 |
| TLKGRRLVWDNQL [F9W] | 7.15 |
| TLKGRRLVFDNNL [Q12N] | 8.8 |
| TLKYRRLVFDNQL [G4Y] | 3.06 |
| TLKGSRLVFDNQL [R5S] | -0.27 |
| TLKGRRLVFTNQL [D10T] | 8.66 |
| WLKGRRLVFDNQL [T1W] | 9.29 |
| TLKGRRLIFDNQL [V8I] | 9.92 |
| TLKGRRRVFDNQL [L7R] | 1.69 |
| TLKGRYLVFDNQL [R6Y] | 4.83 |
| TLKGRRLVFDNQV [L13V] | 8.93 |
| TLKGRRLVFYNQL [D10Y] | 8.54 |
| TLKGRRLVFMNQL [D10M] | 8.31 |

A few entries again (sample 5):
| Variant | normalised enrichment score |
| --- | --- |
| TLCGRRLVFDNQL [K3C] | 8.16 |
| TLKGRRLVMDNQL [F9M] | 6.92 |
| TLKGRRLVWDNQL [F9W] | 7.15 |
| TLKGRRLVFDNNL [Q12N] | 8.8 |
| TLKYRRLVFDNQL [G4Y] | 3.06 |
| TLKGSRLVFDNQL [R5S] | -0.27 |
| TLKGRRLVFTNQL [D10T] | 8.66 |
| WLKGRRLVFDNQL [T1W] | 9.29 |
| TLKGRRLIFDNQL [V8I] | 9.92 |
| TLKGRRRVFDNQL [L7R] | 1.69 |
| TLKGRYLVFDNQL [R6Y] | 4.83 |
| TLKGRRLVFDNQV [L13V] | 8.93 |
